Measurements of several laboratories.
Each numbered part is a random draw from the data of one study; scales do not carry over between parts.

Block 1
Target: Replicase polyprotein 1ab, nsp13 helicase (rep, Severe acute respiratory syndrome coronavirus 2, UniProt P0DTD1)
Action: inhibitor
Concentration: 20 µM
SMILES | inhibition [%]
C[C@@H](Oc1ccc2[nH]nc(/C=C/c3cnn(CCO)c3)c2c1)c1c(Cl)cncc1Cl | 1.51
O=C(Nc1ccc(-c2ccncc2)cc1)N[C@H](CO)c1ccccc1 | -3.18
CC[C@]1(O)C[C@H]2CN(CCc3c([nH]c4ccccc34)[C@@](C(=O)OC)(c3cc4c(cc3OC)N(C=O)[C@H]3[C@@](O)(C(=O)OC)[C@H](OC(C)=O)[C@]5(CC)C=CCN6CC[C@]43[C@@H]65)C2)C1 | 5.37
Nc1nc(F)nc2c1ncn2[C@@H]1O[C@H](CO)[C@@H](O)[C@@H]1O | 2.42
CC(C)(C(=O)O)c1ccc(C(=O)CCCN2CCC(OC(c3ccccc3)c3ccccc3)CC2)cc1 | -1.81
CCCCC1C(=O)N(c2ccccc2)N(c2ccc(O)cc2)C1=O (stereo not drawn) | 19.7
O=C(NCCO[N+](=O)[O-])c1cccnc1 | 0.2
CC(C)[C@@H](CN1CC[C@@](C)(c2cccc(O)c2)[C@@H](C)C1)NC(=O)[C@H]1Cc2ccc(O)cc2CN1 | -1.46
O=C(Nc1ccc(F)cc1)N1CCc2ccccc2C1c1ccc(C(F)(F)F)cc1 (stereo not drawn) | -1.41
Cc1ccccc1C(=O)c1ccc(Nc2ccc(Br)cc2N)cc1Cl | 6.33
CCN(CC)C(=O)c1ccc(O)c(OC)c1 | -0.39
O=[N+]([O-])c1ncc[nH]1 | 17.9
COc1cc(/C=C(\C#N)C(N)=O)cc(CSc2nc3ccccc3s2)c1O | 5.58
O=C(CN1CCN(Cc2ccc3c(c2)OCO3)CC1)N1c2ccccc2Sc2ccccc21 | -6.8
Cc1ccc(Cl)cc1N(CC(=O)Nc1c(F)cccc1F)S(C)(=O)=O | 3.1
COC(=O)C[C@](O)(CCCC(C)(C)O)C(=O)O[C@@H]1C(OC)=C[C@]23CCCN2CCc2cc4c(cc2[C@H]13)OCO4 | 3.64
C[C@](N)(Cc1ccc(O)c(O)c1)C(=O)O | -2.73
CC[C@H]1OC(=O)C[C@@H](O)[C@H](C)[C@@H](O[C@@H]2O[C@H](C)[C@@H](O[C@H]3C[C@@](C)(O)[C@@H](O)[C@H](C)O3)[C@H](N(C)C)[C@H]2O)[C@@H](CC=O)C[C@@H](C)C(=O)/C=C/C(C)=C/[C@@H]1CO[C@@H]1O[C@H](C)[C@@H](O)[C@@H](OC)[C@H]1OC | 8.58
CC1=CC(=O)NS(=O)(=O)O1 | 6.33
C#C[C@]1(OC(C)=O)CC[C@H]2[C@@H]3CCC4=CC(=NO)CC[C@@H]4[C@H]3CC[C@@]21CC (mixture of isomers) | -2.99
Nc1nccc2c1ncn2[C@@H]1C=C(CO)[C@@H](O)[C@H]1O | 1.77
N[C@H](C(=O)O)c1cc(O)no1 | 2.37
CC(=O)NC(Cc1ccccc1)C(=O)O (stereo not drawn) | 4.02
C=CC(=O)Nc1cccc(Nc2nc(Nc3ccc(Oc4ccnc(C(=O)NC)c4)cc3)ncc2F)c1 | 2.8
Cc1c(CN2CCN(C(=O)[C@H](C)O)CC2)sc2c(N3CCOCC3)nc(-c3cnc(N)nc3)nc12 | 0.92

Block 2
Target: Centromere-binding protein 1, full length, His-tagged (CBF1, Saccharomyces cerevisiae, UniProt P17106, residues 1-351)
Sequence of UniProt P17106 (whole entry, looked up): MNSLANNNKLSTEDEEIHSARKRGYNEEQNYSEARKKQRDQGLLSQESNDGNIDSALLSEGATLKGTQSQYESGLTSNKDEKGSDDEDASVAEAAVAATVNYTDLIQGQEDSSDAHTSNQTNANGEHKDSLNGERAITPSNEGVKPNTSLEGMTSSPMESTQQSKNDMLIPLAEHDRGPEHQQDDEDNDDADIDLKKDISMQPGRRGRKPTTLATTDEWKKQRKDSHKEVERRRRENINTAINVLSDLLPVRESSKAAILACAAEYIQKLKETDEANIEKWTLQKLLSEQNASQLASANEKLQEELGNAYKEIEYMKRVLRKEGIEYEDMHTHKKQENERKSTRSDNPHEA
Technique: competition protein-binding microarray
Form: double-stranded DNA, one strand shown
Medium: in vitro
Concentration: 2 µM
Notes: whole 60-bp probe, lowest competitor level
Together with: Pho4 competitor, 0.05 µM
Direction: higher = stronger binding
Constant ends, left off below: … GTCTTGATTCGCTTGACGCTGCTG
Strand | fluorescence intensity [a.u.]
CGGGGTTAAGTTTGTGCCGTGGGTGGCTTGCAGCAG | 54.3
CTTTCCCGATCTTGGACAGTGGGTGTAGCACATTTG | 66.9
AGAATCAAAGCTCACCACGTCATGGTTGCGAAAGCC | 67.7
GAATTACTCATTTGTTTCGTGCGATTTCCTATTGCG | 92
CGGGGTTAAGTTTGAGCTGTGGGTGGCTTGCAGCAG | 67.3
TGGCAGCGTAACTGGCACGGCCACATCGGTGGGATT | 55.7
CGTCCTAGTGATTTTCACGTGTTCTCCATGAGGAAG | 1410
CGGGGTTAAGTTTTGCACGTGTTTTGCTTGCAGCAG | 1390

Block 3
Cell line: HEK-293T
Read-out: pseudovirus infection
Technique: FDA-approved drug library screen
Organism: VSV pseudotyped with SARS-CoV-2 spike
Concentration: 10 µM
Time: 16 h
Relative to: vehicle-treated
Structure (SMILES) | GFP-positive cells
CCCCOc1ccc(C(=O)CCN2CCCCC2)cc1 | 74.4%
CCOC(=O)O[C@]1(C(=O)OCCl)CC[C@H]2[C@@H]3CCC4=CC(=O)C=C[C@]4(C)[C@H]3[C@@H](O)C[C@@]21C | 105%
Nc1ccn([C@@H]2O[C@H](CO)[C@@H](O)C2(F)F)c(=O)n1 | 95.7%
CC(=O)Oc1ccccc1C(=O)Nc1ncc([N+](=O)[O-])s1 | 16.6%

Block 4
Target: Ras GTPase-activating protein-binding protein 1, RRM domain (G3BP1, Homo sapiens, UniProt Q13283)
Sequence of UniProt Q13283 (whole entry, looked up): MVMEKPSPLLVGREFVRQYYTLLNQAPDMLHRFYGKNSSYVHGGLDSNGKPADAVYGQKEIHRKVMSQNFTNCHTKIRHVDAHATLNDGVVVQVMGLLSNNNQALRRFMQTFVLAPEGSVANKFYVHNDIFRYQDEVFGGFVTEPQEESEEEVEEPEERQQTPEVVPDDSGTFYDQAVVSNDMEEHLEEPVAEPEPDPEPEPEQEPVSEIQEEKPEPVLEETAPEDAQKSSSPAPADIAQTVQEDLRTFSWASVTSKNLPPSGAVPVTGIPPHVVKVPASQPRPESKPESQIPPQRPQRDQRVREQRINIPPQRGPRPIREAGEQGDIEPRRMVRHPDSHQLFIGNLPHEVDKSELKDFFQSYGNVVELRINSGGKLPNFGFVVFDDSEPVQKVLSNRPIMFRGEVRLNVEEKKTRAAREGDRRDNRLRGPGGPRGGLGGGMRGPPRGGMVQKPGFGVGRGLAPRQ
Technique: RNA Bind-n-Seq
Form: RNA
Medium: in vitro
Concentration: 1 µM
Notes: whole 134-nt RNA, ends assumed
Together with: 150 mM KCl
Relative to: input library
Direction: higher = stronger binding
Constant ends, left off below: GGGAGUUCUACAGUCCGACGAUC … UGGAAUUCUCGGGUGUCAAGG
Strand | log2 enrichment
UGCCUGUAUGGAGUGGAAUGAAUGUUGCUGGUGUCUCUCUGAAGACUCUGCACCCAGAUUUAGGGACUGAUAAAGAUAAGGAACAGUGGA | 0.0841
ACCAUGCAGGUGGGCAUCUUUGGGAAGUGGGGCAAGGGGGGGAUAGGGAGGGGGGUAACACUUUGGGCACAGGUGGUCCCAGGUCGUUUC | 0.93
ACCAUGCAGGUGGGCAUCUUUGGGAAGUGGGGCAAGGGGGGGAUAGGGAGGGGGGUAAUACUUUGGGAACAGGUGGUCCCAGGUCGUUUC | 1.01
CCUGUGCUACACAUCGUAUGUACCGAAUCGGGGAAAAAGGGGAAAAAGGGGUUUUUGGGGAAAGUAUUAUGUUACGCCGUUCGGAUCUGC | 0.842
GCAGGAAGUAAAAACAAAUGGAAAUGCUUCGGAUAGUGGCAGGGGUGGGGGUUGCUAAGGAAAGGGUGGGAUGGGAGUGGGAAAAGAGUU | 1.15
UGGGAGGUGGAUUUUGUUUAGUUUUUUAGCUCAUUUCCAGGGGUGGGAAUUUUUUUUUAAUAUGUGUCAUGAAUAAAGUUGUUUUUGAAA | 0.925
CCUCAAGUCCUGUGCUACACAUCGUAUGUACCGAAUCGGAGGGAGGGGAGGGAAAGUAUUAUGUUACGCCGUUCGGAUCUGCACUUCCAG | 0.14
AAACUUUAGAGGAGGAUCUGAUGGAUAUGGCAGUGGACGUGGAUUUGGGGAUGGCUAUAAUGGGUAUGGAGGAGGACCUGGAGGUGGCAA | -0.785

Block 5
Target: RNA binding protein fox-1 homolog 2, RRM domain, GST-SBP tag (RBFOX2, Homo sapiens, UniProt O43251-10, residues 100-194)
Technique: RNA Bind-n-Seq
Form: RNA
Medium: in vitro
Concentration: 365 nM
Notes: natural RNA segment, single round, ends assumed
Relative to: no-protein control
Direction: higher = stronger binding
Constant ends, left off below: GGGAGUUCUACAGUCCGACGAUC … UGGAAUUCUCGGGUGCCAA
Target sequence (chain): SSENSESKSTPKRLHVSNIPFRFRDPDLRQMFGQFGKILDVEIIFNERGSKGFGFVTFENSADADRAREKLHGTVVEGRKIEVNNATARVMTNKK
Strand | RBNS enrichment (R)
UGGAAUUCAGUAAGUGCAUAUCCUAACUUGCCCAUAUUCUAAAUCAUCUGGUUGGUUUUCAGCCUAGAAUUUGAUACGCUUUUUAGAAAUAUGCCCAGAAUAGAAAAGCU | 0.5
UGGGUCUCACUAUACAGAGCAGCCUGCCUCCCCACUGCUGGGAUUAAGCUGAGAAGCACCAAGUCUGACCACCCGUGUGUUGAUGACUUGCAGUCAAUUAACUAUGUGUG | 0.356
CUUGAUCUUAUUUAAGGUCUCCAAAUAGCCCCCACCACACUUAGAACGUGUGUUUUCUUAGUGUUAGAAGCCAGGCCCUGAGUCCCCAGCACUCACCUGAACUGUGGCUG | 0.332
AGUCAGGAGUCAAACUGCUGCCUUUAAAAAAACACACAAAAAGCUGAUUCAGUUCAAAAUUAAUGCAAAUCUUUCAAAACUGGGUUUCUGAUACUUGUGGAUGUUUUUCU | 0.284
UUGGAAAAAUAAUUUUGCAUUUUUUGAGCCUUUGAAAGUUGGAAAGUCCACUAACUGUUCAAAGAUAAGGAGCAGUGCCUAUUCUCAAGAGCAGCCAUGCCAUGUACUCC | 0.655
UAGGAGUAAUAGUUUCCCCCAAGGACAGCCCAGCCCAUGGACCACUUCUUCCUCAGUGGAGAUACCACACAUGAGUGGAGAGAUACGUUAGAUAGCUUUGGUAAAUAUCU | 0.318
GCUUCAGACUCUUAAUGCUUUUAUAUAAAGCUAUCAACUGUAUGUUGAUCACAGUUUAUAAGAAAGAACAAAUCAAGAUUGGCAAUCCUUGCCGAUCUUUUAGAAAUACC | 0.404
CUUCUGUUCCUUGUAUCUGUGGAAGUCAAGUAGCCCUUCUCAAAAAUGAGAAGCCAAGCUUUAAAUAGCAAACUACAGGGUAUUAAAAGACUAACUCUUCAGUUAAGAAC | 0.303

Block 6
Target: Replicase polyprotein 1ab, main protease (rep, Severe acute respiratory syndrome coronavirus 2, UniProt P0DTD1)
Read-out: enzyme activity
Action: inhibitor
Structure (SMILES) | IC50 [µM]
COc1ccc([N+](=O)[O-])c(S(=O)(=O)c2ccc(Cl)cc2)n1 | 5.05
NC[C@@H]1O[C@H](C23CC4CC(CC(C4)C2)C3)Cc2c1ccc(O)c2O | > 20
COc1ccc(C(=O)n2nc(-c3ccccc3)nc2N)cc1OC | 8.75
CCCCCCCCCCCCCCCC[n+]1ccn(Cc2ccccc2)c1C | > 20
